# Published values from different studies.
# Numbered parts are unrelated; each lists some results of a single study.

# Series 1
# Target: RNA binding protein fox-1 homolog 2, RRM domain, GST-SBP tag (RBFOX2, Homo sapiens, UniProt O43251-10, residues 100-194)
# Technique: RNA Bind-n-Seq
# Form: RNA
# Sample: in vitro
# Tested at: 365 nM
# Setting: natural RNA segment, single round, ends assumed
# Reference: no-protein control
# Direction: higher = stronger binding
# Shared flanks, not repeated: GGGAGUUCUACAGUCCGACGAUC … UGGAAUUCUCGGGUGCCAA
# Residues (chain): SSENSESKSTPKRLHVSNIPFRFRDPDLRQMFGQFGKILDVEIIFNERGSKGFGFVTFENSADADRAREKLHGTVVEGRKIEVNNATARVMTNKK
Oligonucleotide,RBNS enrichment (R)
CCGGGACGCCUAGGAGCCUGGGGGACACUGGAAGAGGGGCCUGUCCAUCCUCACCAUCGCCUUCCCUUUUCUCCUGCACCCCUGUAGUCUACCUCUACAGUCUCCAUGAC,0.352
UCCAGGGGCUGUAUGGGCAGAUUCAGUCUCCAGAGGGUAUUCAGAUCAUCUGCUUCUUUGAAGGAGUAAAUGUGUUUUGUUCCUAGGGCCAGAGGAGCUUGUCUUCCUUG,0.342
UCUUAGACGAUAGAUACCCAUAUUUCUCCACAAAGUCAAUGCUAUCUUUUUAACAGCACUGUAGCAUUUUUCUUCGUUUAGAACCUUUACUGACUCCAUUGAGUCCCUGA,0.295
UCAGUGUCCUGAAAAAUGGAACCACCCACUAACCAUAUGCACUGGCUGCCCAGGUGGCUGCACUCCGGGGAUCACGUUUCAGUACUGAGUUCCUUCACGCACUUGGUUCA,0.768
CGCCUUCGGCCAGGCAGCGAUCCACGGACCAAACCUCCUGCGCCCUCAGCCGGUGGGUCACUUCUCCAGUGUCCAGUGCCAUCUUUCUCGACCCUGUUUCUUUCCAUUCA,0.32
UCAACCAUUAGUGCUACCACCUUCUCACAUUACAAUACAAUUACUGGAAGCAAGUACUGCAUUUCCUAUGCAACAAAAAAGGAAAAAUAAAAAAUUGCUAAUGCUAUGGA,0.805
CAGGCCAUUUCCAGUGAAAGAAACUUAGUUUUACAAGAAAACAUUUGCUACUGAAUGCUUACACUAAUCUUGGUGUUUAAUGUUACAUGCUUAAAUUCUUUUCAGUUUUC,1.59
UCUUGCCCAAGGGCCUCCUGCAUAGACCUUGUCGGUCAAAUCUUGAGUCCUUGUACAGAAAUGAUAGAGGCCUGAGGGGGUGUGCAGGUGAUAGACCCUGGUACUCCUAA,0.411
AGCCAGGAAGGAGACUGCACAGUUUUGAAAGCACAGCCCGUCAGGUCCGGCUCUGCGUCUCCCUCUCUGCAGCCUGUGUAAGCUAUUAUAAUUAAAAUGGUUUUCCGGGA,0.683
CGCACAGAUAAGUCCAGAAAGCCAGGGAGUAUGAGUCCCCAGGUCGCCAGGGCAUAACCAAAUAGAAAUAGUCAGUGGUGUGGAAAUCCGAUGUAAGAUGUAAUAGAUAA,1.11
CCAAAGAGAAUCUAAUUUUUUCAGUGGGUGAACUCAUCAUUGCUGGAACUGAAACUACAACCAAUGUGCUCCGCUGGGCAAUUCUUUUCAUGGCCCUUUAUCCUAAUAUU,0.439
UUUCUCACUUUUGUUCAGUGUUUUUAUAAUAUUUGAUAAUAAAAUUCAAGAAAAUCCUAACUAAUGGAAACCUGGUUACCUAAUUCCUGUAUCCUGAAGGAUUUCUACUA,0.346

# Series 2
# Target: Fragile X messenger ribonucleoprotein 1, C-terminal low-complexity region (Fmr1, Mus musculus, UniProt P35922)
# Technique: RNA Bind-n-Seq
# Form: RNA
# Sample: in vitro
# Tested at: 200 nM
# Setting: whole 134-nt RNA, ends assumed
# With: 150 mM KCl
# Reference: input library
# Direction: higher = stronger binding
# Shared flanks, not repeated: GGGAGUUCUACAGUCCGACGAUC … UGGAAUUCUCGGGUGUCAAGG
Oligonucleotide,log2 enrichment
UGGCCCUGGUGGCAUGCGGGGAGGAAGAGGUGGCCUCAUGGAUCGUGGUGGUCCCGGUGGAAUAUUCAGAGGUGGCCGUGGUGGAGACAG,0.0438
CCUGUGCUACACAUCGUAUGUACCGAAUCGGGAAAAAAGGGGAAAAAAGGGGAAAAAAGGGAAAGUAUUAUGUUACGCCGUUCGGAUCUG,-0.576
UGAUCUCCAGGAUGACAUGCGAAGAUGCCAAAUCAUCCGAGACAUGAUUGGACCGGAAAAGACUUUGGUAAAUAUCCUCUCACACCACUA,-0.921
UCCUGUGCUACACAUCGUAUGUACCGAAUCGUGUGUGUGUGUGUGUGUGUGUGUGUGUGUAAAGUAUUAUGUUACGCCGUUCGGAUCUGC,0.811
UGGCCCUGGUGGCAUGCGGGGAGGAAGAGGUGGCCUCACGGAUCGUGGUGGUCCCGGUGGAAUGUUCAGAGGUGGCCGUGGUGGAGACAG,0.234
UCCUGUGCUACACAUCGUAUGUACCGAAUCGGUUUUUUGGGUUUUUUGGGUUUUUUGGGAAAGUAUUAUGUUACGCCGUUCGGAUCUGCA,-0.0328
AAGUCCUGUGCUACACAUCGUAUGUACCGAAUCGGGUUUGGGUUUGGGAAAAAGGGAAAGUAUUAUGUUACGCCGUUCGGAUCUGCACUU,0.473
GUCCUGUGCUACACAUCGUAUGUACCGAAUCAAAGUGUGUGUGUGUGUGUGUGUGUAAAAAAGUAUUAUGUUACGCCGUUCGGAUCUGCA,0.138
UCCUCAAGUCCUGUGCUACACAUCGUAUGUACCGAAUCGGCGGGGCGGGCGGAAAGUAUUAUGUUACGCCGUUCGGAUCUGCACUUCCAG,0.186
CACAGACAACACGCGCCCACACAGACACAGAGGGAAGGGGUUGGGAUGGGGACAGGGUGCACAGCAGGGCGGGGUAGGACCCCAGCCCCU,1.35
UGCUAGGCAAUGGAUCACUUGGAGUCCUUUAUUGCUGAAUGUGAUCGGAGAACUGAGCUCGCCAAGAAGCGGCUGGCAGAAACACAGGAG,0.694
UUUUCUGUUUGAAACAGUUUUAUACUUUCUGAUAUAGUACUUGAAAUUCUUACCAGAAAAUUACUUUGGAGUUUUGAAGCCUUUAUUAAU,-0.356
CCUGUGCUACACAUCGUAUGUACCGAAUCGGGGUUUUUGGGGAAAGGGGUUUUUUUGGGGAAAGUAUUAUGUUACGCCGUUCGGAUCUGC,0.316
UCAGCAACCACCUCAACUCAUUGACUCCGCCAACAUCCGUCAGGAGGAUGCCUUUGAUAACAACAGUGACAUUGCUGAAGAUGGUGGCCA,-1.25

# Series 3
# Target: RING finger protein unkempt homolog, zinc fingers 1-6, GST-SBP tag (UNK, Homo sapiens, UniProt Q9C0B0, residues 30-357)
# Chain of UniProt Q9C0B0 (30-357, looked up): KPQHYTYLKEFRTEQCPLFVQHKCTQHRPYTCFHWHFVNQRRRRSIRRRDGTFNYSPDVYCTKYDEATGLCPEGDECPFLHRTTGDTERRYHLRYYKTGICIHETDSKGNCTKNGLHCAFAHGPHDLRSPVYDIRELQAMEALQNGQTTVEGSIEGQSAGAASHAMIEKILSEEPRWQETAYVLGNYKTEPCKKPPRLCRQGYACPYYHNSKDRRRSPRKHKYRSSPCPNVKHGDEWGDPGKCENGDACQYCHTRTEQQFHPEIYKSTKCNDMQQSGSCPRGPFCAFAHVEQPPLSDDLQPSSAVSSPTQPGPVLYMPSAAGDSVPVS
# Technique: RNA Bind-n-Seq
# Form: RNA
# Sample: in vitro
# Tested at: not given
# Setting: RNA with constant flanks, human-mouse chimeric sites, ends assumed
# Reference: input RNA pool
# Direction: higher = stronger binding
# Shared flanks, not repeated: GGGAGUUCUACAGUCCGACGAUC … CAACAGAGGAUUGAGCAUCA
Oligonucleotide,bound/input enrichment
GAUCCACAGUGGUCUGAGGAGCAACUCAUUGCUGCAAAAUUCUGUUUUGCUGGCCUUCUUAUAGGCCAGACUGAAGUGGAUAUCAUGAGUCAUGCCACACAAGCUAUUUUUGAAAUUCUG,0.125 ratio
CUGUGCGGGUGACUGUCCUGGAGUGGCUGGAGUUCCCGCCGGAGCGCGGCCAGACUAAUUUUAGAAAAUGCCAAGUAGGAAAUUUGCUGAGGGUGAAGUGGUCAGAGGCCGAUGGCCUGG,1.71 ratio
UGUGCAUAUGAUGCUUGAGAUGGUUUUUGCAGAUGCAGAAAUCGCUGCAAGGUAAUCACAAUAGAUAAAAGUGGUAUUUUAAACCUUUGAAAUAAAUGGAUGUAACUGUACGUUGGUACA,0.777 ratio
GGUGGGGUGGUCAUUGCCGUUUGAGCUGCUGAUUUUCAUGAGUCGCCUUCAAAACUCUCGUGUAGGGUUGACAAUGUGGGGGGGUGGGGGAUCCAGCUAUUUUUUUUAUUUUCAAGUCCA,2.15 ratio
AAUUUCCGCAACUGUUUUUUAGACAUUGCCAUAGGUAUUACAGAGCACCUGGCCACAUUCUAGGUUUGUGUUAUUUCUCAGCUAUGGAUAUGAUCAAAUGAGAACACUGCUUAACUAAUG,1.59 ratio
UUUCUAUUGCAGCAAACGAUGCUAAGAGUGAAGGAUCCUAAGAAGUCCCUGGAUUUUUAUACGAGGGUUCUUGGACUGACCCUCCUGCAGAAGCUUGACUUCCCUGCUAUGAAGUUCUCG,0.179 ratio
UGACAAGGGCACUGCAGAGCCAUGCCUUUCUUGGACAUACAGAAAAAGCUGGGCAUCAACAUAGAUCGGCACUUUAUGUUCCUAAGCGCAGAACAGCCCUAUAAGAACGCCGCUCGGUGC,0.107 ratio
CUGGGCUUCUCUUUUCUUUCUUUCCUUUAGGAAAAGCAGAUUAGACUGGUUGUAAGAAAAACAGAAGCCAUGUUUCGAAGACCUGUGUUACAGGUAUUUCGUCAGUUUGUAAGACAUGAG,0.297 ratio
CCUCUGCCCCGCUCUGCAGCCUGGGGACACUGGGCUGGGACCAGAAUCUUAUUUUUUUUUAAAACUCUCAGUGUAACUGUAUCCCGUGACAUUUCAUUUUUUUUAAAUAGUGUAUUUUUU,6.95 ratio
AAAGCCCAAGUAUUUUGAAAAAACUCGAACAGAUUUGUCAAGGGUAACCAGCUUGGAGUCUAGCAACUUGCCAAUGUGUUUACCAAUUUUGGGGGCUGUUUUUCUUUUCUUCUUUCAAAU,0.46 ratio
UACUCAACUUUCUUGCCACGUUUUGAAUUCCAAGACAUUAUUCCUCCAGAUGACUUCCUAACGAGUGAUGAAGAGCAAGAUUUGGUUUUAUUUGGAACUAUGAGAGGACAAGUUGUUGGA,0.183 ratio

# Series 4
# Target: Sal-like protein 4, full length isoform A (SALL4, Homo sapiens, UniProt Q9UJQ4, residues 1-1053)
# Chain of UniProt Q9UJQ4 (whole entry, looked up): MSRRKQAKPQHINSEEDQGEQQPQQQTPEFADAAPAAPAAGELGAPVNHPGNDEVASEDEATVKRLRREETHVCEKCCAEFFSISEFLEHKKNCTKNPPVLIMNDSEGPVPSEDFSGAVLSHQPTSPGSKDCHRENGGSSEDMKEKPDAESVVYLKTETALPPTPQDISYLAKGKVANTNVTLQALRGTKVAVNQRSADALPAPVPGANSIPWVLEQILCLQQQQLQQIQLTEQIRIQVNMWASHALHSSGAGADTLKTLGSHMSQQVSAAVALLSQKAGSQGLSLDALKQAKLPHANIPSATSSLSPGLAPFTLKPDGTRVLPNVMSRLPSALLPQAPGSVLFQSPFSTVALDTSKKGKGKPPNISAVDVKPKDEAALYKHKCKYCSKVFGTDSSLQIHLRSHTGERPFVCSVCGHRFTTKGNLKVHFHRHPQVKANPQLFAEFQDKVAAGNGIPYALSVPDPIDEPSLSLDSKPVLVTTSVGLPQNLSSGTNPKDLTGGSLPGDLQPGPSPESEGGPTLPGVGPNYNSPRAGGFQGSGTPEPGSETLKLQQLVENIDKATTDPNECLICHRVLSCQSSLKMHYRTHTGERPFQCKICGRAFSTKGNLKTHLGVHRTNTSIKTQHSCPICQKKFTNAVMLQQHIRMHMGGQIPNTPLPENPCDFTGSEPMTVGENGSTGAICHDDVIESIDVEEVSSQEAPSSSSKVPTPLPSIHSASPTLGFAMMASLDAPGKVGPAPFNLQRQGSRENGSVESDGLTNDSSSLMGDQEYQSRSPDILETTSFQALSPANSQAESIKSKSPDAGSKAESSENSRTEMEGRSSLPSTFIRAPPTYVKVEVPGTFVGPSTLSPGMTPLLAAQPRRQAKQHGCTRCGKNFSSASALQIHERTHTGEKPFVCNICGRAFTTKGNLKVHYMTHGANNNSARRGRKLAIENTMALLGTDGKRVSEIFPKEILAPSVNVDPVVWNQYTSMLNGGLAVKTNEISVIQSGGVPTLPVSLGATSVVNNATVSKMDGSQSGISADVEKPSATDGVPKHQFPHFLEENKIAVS
# Technique: universal PBM
# Form: double-stranded DNA, one strand shown
# Sample: in vitro
# Tested at: 600 nM
# Setting: 8-mer, flanks averaged, mean of replicates
# Direction: higher = stronger binding
Oligonucleotide,E-score
AGACATAG,0.19
ACGCATCA,0.164
CTGTCGTC,-0.0737
AGAGGACC,-0.3
ATGAAACC,0.136
CGTCGCCA,-0.166
GCCGGGCA,-0.426
AGGAACCG,-0.198
AGGACCCG,-0.39
GACACAGC,-0.152
ACACTAAG,0.0351
ACAACTCG,0.0356
AGGGTCGA,-0.129
AGCTCTGC,-0.292
AGGTACGG,-0.32
AGCTAATA,0.204
ATGTCCAG,-0.127
TAGCTGGA,-0.00374
AACCCAGG,-0.271
CCAGAGCA,-0.0902
CTGATAAG,0.0712
CTACTGCA,0.0278

# Repeated from above (series 3):
Oligonucleotide,bound/input enrichment
UGUGCAUAUGAUGCUUGAGAUGGUUUUUGCAGAUGCAGAAAUCGCUGCAAGGUAAUCACAAUAGAUAAAAGUGGUAUUUUAAACCUUUGAAAUAAAUGGAUGUAACUGUACGUUGGUACA,0.777 ratio
GGUGGGGUGGUCAUUGCCGUUUGAGCUGCUGAUUUUCAUGAGUCGCCUUCAAAACUCUCGUGUAGGGUUGACAAUGUGGGGGGGUGGGGGAUCCAGCUAUUUUUUUUAUUUUCAAGUCCA,2.15 ratio
AAUUUCCGCAACUGUUUUUUAGACAUUGCCAUAGGUAUUACAGAGCACCUGGCCACAUUCUAGGUUUGUGUUAUUUCUCAGCUAUGGAUAUGAUCAAAUGAGAACACUGCUUAACUAAUG,1.59 ratio
UUUCUAUUGCAGCAAACGAUGCUAAGAGUGAAGGAUCCUAAGAAGUCCCUGGAUUUUUAUACGAGGGUUCUUGGACUGACCCUCCUGCAGAAGCUUGACUUCCCUGCUAUGAAGUUCUCG,0.179 ratio
UGACAAGGGCACUGCAGAGCCAUGCCUUUCUUGGACAUACAGAAAAAGCUGGGCAUCAACAUAGAUCGGCACUUUAUGUUCCUAAGCGCAGAACAGCCCUAUAAGAACGCCGCUCGGUGC,0.107 ratio
CUGGGCUUCUCUUUUCUUUCUUUCCUUUAGGAAAAGCAGAUUAGACUGGUUGUAAGAAAAACAGAAGCCAUGUUUCGAAGACCUGUGUUACAGGUAUUUCGUCAGUUUGUAAGACAUGAG,0.297 ratio
CCUCUGCCCCGCUCUGCAGCCUGGGGACACUGGGCUGGGACCAGAAUCUUAUUUUUUUUUAAAACUCUCAGUGUAACUGUAUCCCGUGACAUUUCAUUUUUUUUAAAUAGUGUAUUUUUU,6.95 ratio
AAAGCCCAAGUAUUUUGAAAAAACUCGAACAGAUUUGUCAAGGGUAACCAGCUUGGAGUCUAGCAACUUGCCAAUGUGUUUACCAAUUUUGGGGGCUGUUUUUCUUUUCUUCUUUCAAAU,0.46 ratio
